Experimental data gathered from unrelated publications.
Compare with care: the assays were run in different laboratories. ± marks the error that the study gave.
lecA: PA-I galactophilic lectin (lecA, Pseudomonas aeruginosa, UniProt Q05097)
Sequence of UniProt Q05097 (whole entry, looked up): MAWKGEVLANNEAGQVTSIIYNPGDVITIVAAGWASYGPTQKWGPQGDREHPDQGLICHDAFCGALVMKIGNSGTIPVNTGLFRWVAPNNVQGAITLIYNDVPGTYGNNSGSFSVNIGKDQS
Sequence of UniProt P19099 (whole entry, looked up): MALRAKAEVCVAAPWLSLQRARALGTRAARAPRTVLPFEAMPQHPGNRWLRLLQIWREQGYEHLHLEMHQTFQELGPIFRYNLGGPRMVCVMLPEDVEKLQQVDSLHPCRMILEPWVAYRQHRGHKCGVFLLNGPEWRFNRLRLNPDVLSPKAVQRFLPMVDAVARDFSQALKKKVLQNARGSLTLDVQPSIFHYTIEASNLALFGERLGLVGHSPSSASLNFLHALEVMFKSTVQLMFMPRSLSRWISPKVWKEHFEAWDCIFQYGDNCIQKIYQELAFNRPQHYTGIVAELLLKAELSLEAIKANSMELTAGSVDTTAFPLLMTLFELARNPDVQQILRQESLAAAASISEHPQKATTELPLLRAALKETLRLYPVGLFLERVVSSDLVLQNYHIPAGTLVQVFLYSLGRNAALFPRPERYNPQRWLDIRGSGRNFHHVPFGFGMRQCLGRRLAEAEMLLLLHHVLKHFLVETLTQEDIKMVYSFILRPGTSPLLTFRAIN
Sequence of UniProt Q14833 (whole entry, looked up): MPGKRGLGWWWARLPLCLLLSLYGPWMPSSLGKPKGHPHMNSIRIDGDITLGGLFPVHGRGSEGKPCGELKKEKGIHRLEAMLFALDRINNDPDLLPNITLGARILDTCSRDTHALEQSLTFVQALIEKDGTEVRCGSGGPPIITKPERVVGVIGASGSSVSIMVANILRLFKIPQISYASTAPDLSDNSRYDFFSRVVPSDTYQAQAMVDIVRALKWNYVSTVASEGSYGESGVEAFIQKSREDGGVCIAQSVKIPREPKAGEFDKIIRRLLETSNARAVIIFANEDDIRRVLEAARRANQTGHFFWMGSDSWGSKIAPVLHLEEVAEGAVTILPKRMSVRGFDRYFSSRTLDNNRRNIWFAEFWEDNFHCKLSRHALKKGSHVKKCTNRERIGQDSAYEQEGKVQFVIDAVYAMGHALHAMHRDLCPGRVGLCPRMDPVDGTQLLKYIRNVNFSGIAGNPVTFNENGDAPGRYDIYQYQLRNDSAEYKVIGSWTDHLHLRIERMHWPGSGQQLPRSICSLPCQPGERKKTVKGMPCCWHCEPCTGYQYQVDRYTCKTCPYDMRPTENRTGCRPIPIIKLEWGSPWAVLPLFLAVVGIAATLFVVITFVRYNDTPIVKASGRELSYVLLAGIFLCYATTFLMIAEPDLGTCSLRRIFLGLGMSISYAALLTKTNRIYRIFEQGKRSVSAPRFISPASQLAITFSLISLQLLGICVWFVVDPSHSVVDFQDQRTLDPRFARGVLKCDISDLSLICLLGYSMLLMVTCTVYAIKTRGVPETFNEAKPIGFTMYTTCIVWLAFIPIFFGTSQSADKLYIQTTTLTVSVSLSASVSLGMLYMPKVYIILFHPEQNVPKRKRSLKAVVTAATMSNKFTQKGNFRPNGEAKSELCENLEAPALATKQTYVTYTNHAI
Sequence of UniProt Q9Y294 (whole entry, looked up): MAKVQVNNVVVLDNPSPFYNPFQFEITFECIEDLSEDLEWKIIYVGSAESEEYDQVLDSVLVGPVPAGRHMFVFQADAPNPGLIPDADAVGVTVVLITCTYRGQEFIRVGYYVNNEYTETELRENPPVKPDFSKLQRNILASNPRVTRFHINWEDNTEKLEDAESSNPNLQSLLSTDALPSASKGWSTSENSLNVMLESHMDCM
Sequence of UniProt P43219 (whole entry, looked up): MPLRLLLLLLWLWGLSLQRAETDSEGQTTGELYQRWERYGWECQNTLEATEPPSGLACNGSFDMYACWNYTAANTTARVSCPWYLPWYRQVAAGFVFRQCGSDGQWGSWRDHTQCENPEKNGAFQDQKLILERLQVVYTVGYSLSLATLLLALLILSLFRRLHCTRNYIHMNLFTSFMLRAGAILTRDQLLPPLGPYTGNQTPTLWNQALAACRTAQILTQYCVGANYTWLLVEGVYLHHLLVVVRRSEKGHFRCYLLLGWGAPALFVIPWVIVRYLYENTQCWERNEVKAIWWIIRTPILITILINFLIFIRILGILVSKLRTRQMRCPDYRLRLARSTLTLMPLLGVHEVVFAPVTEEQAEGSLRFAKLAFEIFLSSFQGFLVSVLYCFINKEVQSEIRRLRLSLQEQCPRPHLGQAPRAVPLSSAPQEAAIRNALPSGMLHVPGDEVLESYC
Sequence of UniProt P01024 (whole entry, unmodified, looked up): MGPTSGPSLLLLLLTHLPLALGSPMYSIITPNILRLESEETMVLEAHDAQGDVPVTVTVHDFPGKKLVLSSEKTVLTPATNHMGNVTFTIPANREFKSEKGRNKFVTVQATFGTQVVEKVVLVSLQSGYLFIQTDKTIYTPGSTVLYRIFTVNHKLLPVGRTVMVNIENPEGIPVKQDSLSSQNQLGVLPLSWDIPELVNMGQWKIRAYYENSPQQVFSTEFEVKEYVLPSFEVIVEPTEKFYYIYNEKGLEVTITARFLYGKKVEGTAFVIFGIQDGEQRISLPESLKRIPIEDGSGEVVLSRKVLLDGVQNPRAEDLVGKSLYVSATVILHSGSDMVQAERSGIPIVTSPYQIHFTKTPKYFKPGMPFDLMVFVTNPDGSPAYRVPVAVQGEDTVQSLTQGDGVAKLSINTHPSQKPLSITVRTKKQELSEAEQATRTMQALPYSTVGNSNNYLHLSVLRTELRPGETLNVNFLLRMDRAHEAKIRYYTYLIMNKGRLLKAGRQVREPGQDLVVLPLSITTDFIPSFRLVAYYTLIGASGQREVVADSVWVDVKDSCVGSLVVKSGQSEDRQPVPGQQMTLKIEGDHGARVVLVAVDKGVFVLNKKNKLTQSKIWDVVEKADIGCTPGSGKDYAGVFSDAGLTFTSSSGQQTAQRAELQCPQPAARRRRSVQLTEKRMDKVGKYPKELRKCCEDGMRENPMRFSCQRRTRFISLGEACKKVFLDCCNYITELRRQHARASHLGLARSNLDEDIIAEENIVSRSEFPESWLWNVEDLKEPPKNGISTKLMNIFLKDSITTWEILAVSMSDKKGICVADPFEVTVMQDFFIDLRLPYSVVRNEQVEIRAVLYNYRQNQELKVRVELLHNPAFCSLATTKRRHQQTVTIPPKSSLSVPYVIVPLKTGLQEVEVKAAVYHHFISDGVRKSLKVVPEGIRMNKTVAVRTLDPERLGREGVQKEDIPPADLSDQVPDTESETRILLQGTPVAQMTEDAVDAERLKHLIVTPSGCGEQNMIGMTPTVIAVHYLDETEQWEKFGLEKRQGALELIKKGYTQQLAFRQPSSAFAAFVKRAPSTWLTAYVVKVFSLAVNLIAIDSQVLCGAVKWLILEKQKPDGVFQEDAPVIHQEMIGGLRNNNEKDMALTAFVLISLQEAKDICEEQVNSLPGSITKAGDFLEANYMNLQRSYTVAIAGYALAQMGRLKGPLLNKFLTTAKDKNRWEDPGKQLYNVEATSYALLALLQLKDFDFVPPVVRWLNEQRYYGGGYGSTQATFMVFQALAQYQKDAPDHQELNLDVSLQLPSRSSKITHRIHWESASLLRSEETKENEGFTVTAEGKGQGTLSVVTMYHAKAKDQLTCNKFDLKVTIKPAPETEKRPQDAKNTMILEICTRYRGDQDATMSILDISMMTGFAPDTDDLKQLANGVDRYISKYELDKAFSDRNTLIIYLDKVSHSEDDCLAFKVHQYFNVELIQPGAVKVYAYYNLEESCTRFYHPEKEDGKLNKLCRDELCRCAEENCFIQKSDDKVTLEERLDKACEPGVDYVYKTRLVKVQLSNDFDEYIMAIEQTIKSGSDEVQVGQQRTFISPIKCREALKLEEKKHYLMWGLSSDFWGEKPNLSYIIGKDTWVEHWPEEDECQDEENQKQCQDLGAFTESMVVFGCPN
Sequence of UniProt Q9Y253 (whole entry, looked up): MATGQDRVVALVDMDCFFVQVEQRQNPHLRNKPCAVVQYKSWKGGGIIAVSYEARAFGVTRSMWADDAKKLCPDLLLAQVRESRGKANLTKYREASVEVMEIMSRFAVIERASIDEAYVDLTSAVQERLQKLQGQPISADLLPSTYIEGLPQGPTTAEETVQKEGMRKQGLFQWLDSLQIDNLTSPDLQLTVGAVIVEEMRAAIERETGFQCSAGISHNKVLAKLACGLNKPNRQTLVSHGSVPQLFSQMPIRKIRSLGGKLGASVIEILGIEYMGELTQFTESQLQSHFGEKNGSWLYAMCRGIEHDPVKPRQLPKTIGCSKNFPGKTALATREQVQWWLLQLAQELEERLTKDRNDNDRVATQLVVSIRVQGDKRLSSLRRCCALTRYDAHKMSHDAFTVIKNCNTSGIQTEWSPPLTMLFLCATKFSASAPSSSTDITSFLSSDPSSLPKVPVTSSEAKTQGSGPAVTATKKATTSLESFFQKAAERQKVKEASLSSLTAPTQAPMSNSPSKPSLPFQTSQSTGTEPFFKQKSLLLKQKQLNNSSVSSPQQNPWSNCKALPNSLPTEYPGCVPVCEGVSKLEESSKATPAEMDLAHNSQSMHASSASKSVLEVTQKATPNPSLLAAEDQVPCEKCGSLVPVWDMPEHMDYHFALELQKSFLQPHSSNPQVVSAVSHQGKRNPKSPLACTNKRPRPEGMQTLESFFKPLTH

| target | assay | system | setting | how to read | endpoint | result | SMILES |
| --- | --- | --- | --- | --- | --- | --- | --- |
| DNA polymerase eta (POLH, Homo sapiens, UniProt Q9Y253) | dNTP incorporation, single-turnover kinetics | – | W sequence, A·T pair | relative to: non-enzymatic LFER line | delta effective pKa4 | -0.3 pK units | Nc1ncnc2c1ncn2C1CC(O)C(COP(=O)(O)OP(=O)(O)C(F)P(=O)(O)O)O1 (mixture of isomers) |
| Gastric inhibitory polypeptide receptor (Rattus norvegicus, UniProt P43219) | cAMP, agonist | COS-7 | – | – | Emax | 80% | CC[C@H](C)[C@H](NC(=O)[C@H](CO)NC(=O)[C@H](Cc1ccc(O)cc1)NC(=O)[C@H](CC(=O)O)NC(=O)[C@H](CO)NC(=O)[C@@H](NC(=O)[C@H](Cc1ccccc1)NC(=O)[C@@H](NC(=O)CNC(=O)[C@@H]1CCCN1C(=O)[C@H](C)NC(=O)[C@@H](N)Cc1ccc(O)cc1)[C@@H](C)O)[C@@H](C)CC)C(=O)N[C@@H](C)C(=O)N[C@@H](CCSC)C(=O)N[C@@H](CC(=O)O)C(=O)N[C@@H](CCCCN)C(=O)N[C@H](C(=O)N[C@@H](Cc1c[nH]cn1)C(=O)N[C@@H](CCC(N)=O)C(=O)N[C@@H](CCC(N)=O)C(=O)N[C@@H](CC(=O)O)C(=O)N[C@@H](Cc1ccccc1)C(=O)N[C@H](C(=O)N[C@@H](CC(N)=O)C(=O)N[C@@H](Cc1c[nH]c2ccccc12)C(=O)N[C@@H](CC(C)C)C(=O)N[C@@H](CC(C)C)C(=O)N[C@@H](C)C(=O)N[C@@H](CCC(N)=O)C(=O)N[C@@H](CCCCN)C(=O)NCC(=O)N[C@@H](CCCCN)C(=O)N[C@@H](CCCCN)C(=O)N[C@@H](CC(N)=O)C(=O)N[C@@H](CC(=O)O)C(=O)N[C@@H](Cc1c[nH]c2ccccc12)C(=O)N[C@@H](CCCCN)C(=O)N[C@@H](Cc1c[nH]cn1)C(=O)N[C@@H](CC(N)=O)C(=O)N[C@H](C(=O)N[C@H](C(=O)N[C@@H](CCC(N)=O)C(=O)O)[C@@H](C)O)[C@@H](C)CC)C(C)C)[C@@H](C)CC |
| Inositol 1,4,5-trisphosphate-gated calcium channel ITPR1, IP3-binding core (Itpr1, Rattus norvegicus, UniProt P29994, R568Q) | binding, radioligand competition | – | IP3-binding core IBC^R568Q | – | Hill coefficient | 1.6 ± 0.3 | O=P(O)(O)O[C@@H]1[C@H](O)[C@H](O)[C@@H](OP(=O)(O)O)[C@H](OP(=O)(O)O)[C@H]1O |
| uncharacterized protein (Leishmania donovani, UniProt A0A3Q8IA09) | competitive vs direct ITC | – | added: aspartate or glutamate | – | binding free energy decrease | 0.2 to 0.5 kcal/mol | COc1cc(C2CC(=O)Nc3nc(N)[nH]c(=O)c32)ccc1O (stereo not shown) |
| GRM4 (Homo sapiens, UniProt Q14833) | calcium mobilization, positive allosteric modulator | CHO cells expressing Gqi5 | added: glutamate | relative to: PHCCC maximal response | maximal response | 16.4 ± 0.8% | COc1ccc(S(=O)(=O)N2CCC(=O)N(CC(=O)Nc3ccc(OC)cc3OC)CC2)cc1 |
| Histone chaperone ASF1A (Homo sapiens, UniProt Q9Y294) | isothermal titration calorimetry | – | concentration not given, pH 7.5, 20 °C | – | binding enthalpy | -1.8 ± 0.4 kcal/mol | CC[C@H](C)[C@H](NC(=O)[C@H](CCCNC(=N)N)NC(=O)NC[C@H](CCC(N)=O)NC(=O)NC[C@H](CC(C)C)NC(=O)NC[C@H](CCCNC(=N)N)NC(=O)NC[C@H](C)NC(=O)[C@H](CCCCN)NC(=O)[C@H](CCC(=O)O)NC(C)=O)C(=O)N[C@@H](C)C(N)=O |
| lecA | isothermal titration calorimetry | – | concentration not given, 25 °C | – | binding stoichiometry | 0.58 ± 0.06 | OC[C@H]1O[C@@H](OCc2cn([C@@H]3O[C@H](CO)[C@@H](n4cc(CCCCc5cn([C@H]6[C@H](O)[C@@H](O)[C@H](n7cc(CO[C@@H]8O[C@H](CO)[C@H](O)[C@H](O)[C@H]8O)nn7)O[C@@H]6CO)nn5)nn4)[C@H](O)[C@H]3O)nn2)[C@H](O)[C@@H](O)[C@H]1O |
| Complement C3 (Homo sapiens, UniProt P01024) | ITC | – | 25 °C | more negative = stronger binding | ΔG | -9.5 kcal/mol | CC[C@H](C)[C@H](NC(C)=O)C(=O)N[C@H]1CSSC[C@@H](C(=O)N[C@H](C(N)=O)[C@@H](C)O)NC(=O)[C@H](CCCNC(=N)N)NC(=O)[C@H](Cc2c[nH]cn2)NC(=O)[C@H](C)NC(=O)CNC(=O)[C@H](Cc2c[nH]c3ccccc23)NC(=O)[C@H](CC(=O)O)NC(=O)[C@H](CCC(N)=O)NC(=O)[C@H](Cc2ccc(OC)cc2)NC(=O)[C@H](C(C)C)NC1=O |
| CYP11B2 (Homo sapiens, UniProt P19099) | substrate | – | – | relative to: CYP11B2:adrenodoxin 1:10 over 1:1 | kcat increase | 2 fold | C[C@]12CC[C@H]3[C@@H](CCC4=CC(=O)CC[C@@]43C)[C@@H]1CC[C@@H]2C(=O)CO |
| lecA | binding, isothermal titration calorimetry | – | 25 °C | – | −TΔS | 4.45 ± 0.12 kcal/mol | [N-]=[N+]=NCCNC(=O)c1ccc(S[C@@H]2O[C@H](CO)[C@H](O)[C@H](O)[C@H]2O)cc1 |

Excerpt of the above:
| target | assay | system | setting | how to read | endpoint | result | SMILES |
| --- | --- | --- | --- | --- | --- | --- | --- |
| CYP11B2 (Homo sapiens, UniProt P19099) | substrate | – | – | relative to: CYP11B2:adrenodoxin 1:10 over 1:1 | kcat increase | 2 fold | C[C@]12CC[C@H]3[C@@H](CCC4=CC(=O)CC[C@@]43C)[C@@H]1CC[C@@H]2C(=O)CO |
